Measurements gathered from unrelated publications.
A part holds a random share of what one study measured. Positions count from the first letter of the parent shown.

Set 1
Target: CCNB1, cyclin fold, Cln2 fusion (human)
Method: yeast growth competition, sequencing
Medium: yeast
Setting: weak parent motif
Baseline: not given
Direction: higher = stronger binding
Parent: GMNC docking peptide (human); KNAKRNLSSEFAN
| Variant | normalised enrichment score |
| --- | --- |
| KNAKRNLSVEFAN [S9V] | 0.472 |
| KNAKMNLSSEFAN [R5M] | 0.263 |
| KNAKRNLRSEFAN [S8R] | 0.322 |
| KLAKRNLSSEFAN [N2L] | 0.258 |
| KNAKRELSSEFAN [N6E] | 0.499 |

Set 2
Target: CREM, bZIP domain (human)
Method: DHFR protein complementation
Medium: yeast
Setting: single substitutions, most at no-binding floor
Baseline: wild-type JUN-FOS pair
Direction: higher = stronger binding
Parent: JUN, bZIP domain (human); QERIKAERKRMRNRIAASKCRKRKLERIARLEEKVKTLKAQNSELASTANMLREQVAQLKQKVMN; partner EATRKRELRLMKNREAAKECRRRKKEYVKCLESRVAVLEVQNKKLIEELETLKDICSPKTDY
| Variant | binding fitness [natural log] |
| --- | --- |
| A57E | -1.39 |
| A29D | -1.68 |
| A29G | -1.47 |
| E32F | -1.4 |
| K39V | -1.41 |
| L31S | -1.56 |

Set 3
Target: Histone acetyltransferase KAT6A, both winged helices, GST fusion (KAT6A, Homo sapiens, UniProt Q92794, residues 1-181)
Method: protein binding microarray
Molecule type: double-stranded DNA, one strand shown
Medium: in vitro
Tested at: not given
Setting: 8-mer, flanks averaged, mean of 2 arrays, mostly near background
Baseline: not given
Direction: higher = stronger binding
Residues (chain): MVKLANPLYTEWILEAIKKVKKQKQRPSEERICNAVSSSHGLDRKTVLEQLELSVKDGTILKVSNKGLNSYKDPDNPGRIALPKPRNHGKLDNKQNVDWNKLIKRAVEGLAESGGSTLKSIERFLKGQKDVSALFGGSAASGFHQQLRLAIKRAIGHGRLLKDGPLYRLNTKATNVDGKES
| Strand | E-score |
| --- | --- |
| AGAGGTAT | -0.0203 |
| ATGGTGAA | -0.0963 |
| ATACTTGA | -0.322 |
| CGTGCCAG | -0.0227 |
| ATCTACTG | -0.098 |

Mixed results
| Substance | target | assay | system | setting | how to read | quantity | result |
| --- | --- | --- | --- | --- | --- | --- | --- |
| PhoQ, residues 284 288 289 292 302 303 SSYNSA | PhoP, residues 12 14 15 18 19 DLLYY (Escherichia coli, UniProt P23836) | Sort-seq, refers to: YFP reporter | E. coli | PhoQ-PhoP variant library, added: 10 µM Mg2+ | baseline: high Mg2+ state, higher = stronger signaling | fold induction | 2.58 |

Excerpt of the above (set 2):
| Variant | binding fitness [natural log] |
| --- | --- |
| E32F | -1.4 |
| K39V | -1.41 |
| L31S | -1.56 |
